{"data": "Measurements of several laboratories", "note": "Every numbered part comes from another study and shows a few of its results, in no order. Substitutions count along the parent as printed."}
{"data": "Block 1", "target": "Sal-like protein 4, full length isoform B (SALL4, Homo sapiens, UniProt Q9UJQ4-2, residues 1-616)", "technique": "universal PBM", "molecule type": "double-stranded DNA, one strand shown", "matrix": "in vitro", "concentration": "not given", "notes": "8-mer, flanks averaged, mean of replicates", "reading": "higher = stronger binding"}
{"Sequence": "GCAGCGGA", "E-score": -0.299}
{"Sequence": "GACGTCTA", "E-score": -0.00183}
{"Sequence": "ATGCACGC", "E-score": 0.0696}
{"Sequence": "ACCCTAAT", "E-score": 0.0693}
{"Sequence": "GACCTTAA", "E-score": 0.00367}
{"Sequence": "ACTTCGTG", "E-score": -0.184}
{"Sequence": "CCGGCCAG", "E-score": -0.423}
{"Sequence": "GCCTATAA", "E-score": 0.175}
{"Sequence": "GAAGTGCC", "E-score": -0.132}
{"Sequence": "GGCAAGGA", "E-score": -0.0841}
{"Sequence": "GTGATCTA", "E-score": 0.165}
{"Sequence": "AATCCGCA", "E-score": -0.117}
{"Sequence": "CTGAAATC", "E-score": 0.0637}
{"Sequence": "CGAGAACC", "E-score": -0.127}
{"Sequence": "CGGCGACC", "E-score": -0.302}
{"Sequence": "GCACCACC", "E-score": -0.293}
{"Sequence": "CCTCACGA", "E-score": -0.177}
{"Sequence": "CAATAGTG", "E-score": 0.166}
{"Sequence": "CAATGATC", "E-score": 0.0448}
{"Sequence": "CGCACCAG", "E-score": -0.241}
{"data": "Block 2", "target": "Histone acetyltransferase KAT6A, winged helix 2, GST fusion (KAT6A, Homo sapiens, UniProt Q92794, residues 85-181)", "technique": "protein binding microarray", "molecule type": "double-stranded DNA, one strand shown", "matrix": "in vitro", "concentration": "not given", "notes": "8-mer, flanks averaged, mean of 2 arrays, mostly near background", "relative to": "not given", "reading": "higher = stronger binding", "Target sequence (chain)": "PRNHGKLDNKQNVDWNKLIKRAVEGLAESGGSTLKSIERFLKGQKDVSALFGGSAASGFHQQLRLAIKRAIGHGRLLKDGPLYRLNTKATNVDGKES"}
{"Sequence": "GAAGCGCA", "E-score": 0.183}
{"Sequence": "ACAGTAGT", "E-score": -0.112}
{"Sequence": "ATACGTAG", "E-score": -0.16}
{"Sequence": "CAACTGAA", "E-score": -0.191}
{"Sequence": "ACCAAGTG", "E-score": -0.153}
{"Sequence": "AGGCGAGA", "E-score": 0.117}
{"Sequence": "AGTGCCTA", "E-score": 0.0533}
{"Sequence": "AGCTAAAC", "E-score": 0.132}
{"Sequence": "ACAAATTA", "E-score": 0.00018}
{"Sequence": "ACCATGAA", "E-score": 0.0676}
{"Sequence": "GCCATTAC", "E-score": -0.094}
{"Sequence": "AGACAGAC", "E-score": 0.0432}
{"Sequence": "CACGGGGG", "E-score": 0.2}
{"Sequence": "CTAAAGAC", "E-score": 0.0524}
{"Sequence": "CTCGTACC", "E-score": -0.106}
{"Sequence": "TGCATCCA", "E-score": 0.019}
{"Sequence": "GAGCAGGA", "E-score": 0.0326}
{"Sequence": "AAGTCACT", "E-score": -0.197}
{"Sequence": "CAAGTGTC", "E-score": -0.0523}
{"Sequence": "AATCCGAT", "E-score": 0.0572}
{"data": "Block 3", "target": "CCNB2, cyclin fold, Cln2 fusion (human)", "technique": "yeast growth competition, sequencing", "matrix": "yeast", "notes": "weak parent motif", "relative to": "not given", "reading": "higher = stronger binding", "starting sequence": "BORA docking peptide (human); SSLRRKLFLDGNG"}
{"Variant": "L7A", "normalised enrichment score": -0.0743}
{"Variant": "N12A", "normalised enrichment score": 1.22}
{"Variant": "R5K F8L", "normalised enrichment score": 0.413}
{"Variant": "K6A", "normalised enrichment score": 0.431}
{"Variant": "R5K L9F", "normalised enrichment score": 1.41}
{"Variant": "L3A", "normalised enrichment score": 0.0154}
{"Variant": "D10A", "normalised enrichment score": -0.0593}
{"Variant": "R4A", "normalised enrichment score": 0.767}
{"data": "Single results of other studies"}
{"Substance": "PhoQ, residues 284 288 289 292 302 303 SCCLKL", "target": "PhoP, residues 12 14 15 18 19 VQALL (Escherichia coli, UniProt P23836)", "assay": "Sort-seq, refers to: YFP reporter", "system": "E. coli", "setting": "PhoQ-PhoP variant library, with: 10 µM Mg2+", "how to read": "relative to: high Mg2+ state, higher = stronger signaling", "endpoint": "fold induction", "value": 3.71}
{"note": "Repeated from above (block 2):"}
{"Sequence": "CAACTGAA", "E-score": -0.191}
{"Sequence": "ACAAATTA", "E-score": 0.00018}
{"Sequence": "CAAGTGTC", "E-score": -0.0523}
{"Sequence": "AAGTCACT", "E-score": -0.197}
{"Sequence": "AATCCGAT", "E-score": 0.0572}
